Measured values gathered from unrelated publications.
Numbered parts are unrelated; each lists some results of a single study. “And” joins repeats or separate records; there may be more than shown. pIC50: −log10 of the molar value.

Set 1 — effect on: dsDNA unwinding; technique: PicoGreen fluorescence; matrix: annealed dsDNA substrate; tested at: 20 µM
Compound	effect [%]
CCOC(=O)Nc1ccc(NCc2ccc(F)cc2)nc1N	1.37
CCN(CC)C(=S)S	10.1
CCN(CC)c1ccc(C(=C2C=CC(=[N+](CC)CC)C=C2)c2ccccc2)cc1	11.8

Set 2 — effect on: RNA clamping; technique: fluorescence polarization; tested at: concentration not given; with: FAM-labelled poly r(AG)8 RNA
Target: Eukaryotic initiation factor 4A-III (Homo sapiens, UniProt P38919)
Chain of UniProt P38919 (whole entry, looked up): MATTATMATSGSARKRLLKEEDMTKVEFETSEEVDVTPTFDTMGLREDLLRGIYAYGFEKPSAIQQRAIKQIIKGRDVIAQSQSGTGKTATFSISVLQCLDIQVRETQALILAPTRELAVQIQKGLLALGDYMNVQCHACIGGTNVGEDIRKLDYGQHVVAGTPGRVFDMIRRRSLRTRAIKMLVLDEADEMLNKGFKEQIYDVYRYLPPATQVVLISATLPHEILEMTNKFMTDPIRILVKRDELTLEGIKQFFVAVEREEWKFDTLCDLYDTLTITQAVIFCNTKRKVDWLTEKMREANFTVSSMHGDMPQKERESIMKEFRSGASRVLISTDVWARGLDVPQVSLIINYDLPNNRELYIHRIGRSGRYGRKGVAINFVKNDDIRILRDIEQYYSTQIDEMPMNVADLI
SMILES	fluorescence polarization change
COC(=O)[C@H]1[C@H](c2ccccc2)[C@@]2(c3ccc(OC)cc3)Oc3cc(OC)cc(OC)c3[C@]1(O)[C@H]2O	-5.4 mP
COC(=O)[C@H]1[C@@H](c2ccccc2)[C@]2(c3ccc(OC)cc3)Oc3cc(OC)cc(OC)c3[C@@]1(O)C2=O	4.1 mP
COC(=O)[C@@H]1[C@@H](c2ccccc2)[C@@]2(c3ccc(OC)cc3)C(=O)[C@]1(O)c1ccccc1N2C	3.1 mP and -13.4 mP

Other studies, line by line
ADRB1: Beta-1 adrenergic receptor (ADRB1, Homo sapiens, UniProt P08588)
Chain of UniProt P08588 (whole entry, looked up): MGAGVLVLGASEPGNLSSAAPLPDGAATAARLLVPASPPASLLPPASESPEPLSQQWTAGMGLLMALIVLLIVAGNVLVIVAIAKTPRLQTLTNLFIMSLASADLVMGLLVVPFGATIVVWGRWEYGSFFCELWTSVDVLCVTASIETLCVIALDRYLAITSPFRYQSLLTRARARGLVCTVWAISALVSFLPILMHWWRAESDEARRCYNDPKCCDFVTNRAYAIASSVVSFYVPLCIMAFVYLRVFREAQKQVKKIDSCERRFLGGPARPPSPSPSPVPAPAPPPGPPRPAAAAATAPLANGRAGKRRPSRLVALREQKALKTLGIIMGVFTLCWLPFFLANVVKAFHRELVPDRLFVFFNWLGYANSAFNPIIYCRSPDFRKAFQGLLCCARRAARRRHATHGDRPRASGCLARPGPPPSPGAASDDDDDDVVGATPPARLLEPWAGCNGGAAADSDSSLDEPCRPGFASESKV
SMILES	tested on	test	setting	scale	quantity	value
ClC1=C(Cl)[C@]2(Cl)[C@@H]3[C@@H]4C[C@@H]([C@H]5O[C@@H]45)[C@@H]3[C@@]1(Cl)C2(Cl)Cl	ADRB1	antagonist			pIC50	≤ 4.00
Cc1cccc(C(C)c2c[nH]cn2)c1C (stereo not drawn)	mouse MPNST tumor cells	high-content immunofluorescence imaging, refers to: nuclear SOX9	10 µM, 12 h, mean of 2 replicates	baseline: DMSO control, higher = more nuclear SOX9	nuclear SOX9 intensity	100 % of DMSO
Cc1ncc2c(c1CNCC1(O)CNCCOC1)CCNC2 (stereo not drawn)	ADRB1	antagonist			pIC50	≤ 4.00

Some of these lines once more (set 2):
SMILES	fluorescence polarization change
COC(=O)[C@H]1[C@@H](c2ccccc2)[C@]2(c3ccc(OC)cc3)Oc3cc(OC)cc(OC)c3[C@@]1(O)C2=O	4.1 mP
